Assay results collected from several papers.
Every numbered part comes from another study and shows a few of its results, in no order.
Sequence of UniProt P50750 (whole entry, looked up): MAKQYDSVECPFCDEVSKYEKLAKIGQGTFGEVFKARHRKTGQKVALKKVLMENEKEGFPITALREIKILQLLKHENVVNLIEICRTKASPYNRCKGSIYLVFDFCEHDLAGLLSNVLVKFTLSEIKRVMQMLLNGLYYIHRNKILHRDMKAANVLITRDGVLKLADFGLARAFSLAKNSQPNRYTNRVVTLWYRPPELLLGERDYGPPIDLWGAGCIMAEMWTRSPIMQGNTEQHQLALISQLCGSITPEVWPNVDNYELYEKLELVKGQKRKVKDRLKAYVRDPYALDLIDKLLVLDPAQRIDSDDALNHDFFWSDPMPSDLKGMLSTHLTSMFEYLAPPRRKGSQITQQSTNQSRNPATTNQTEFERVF
Sequence of UniProt Q6ZN16 (whole entry, looked up): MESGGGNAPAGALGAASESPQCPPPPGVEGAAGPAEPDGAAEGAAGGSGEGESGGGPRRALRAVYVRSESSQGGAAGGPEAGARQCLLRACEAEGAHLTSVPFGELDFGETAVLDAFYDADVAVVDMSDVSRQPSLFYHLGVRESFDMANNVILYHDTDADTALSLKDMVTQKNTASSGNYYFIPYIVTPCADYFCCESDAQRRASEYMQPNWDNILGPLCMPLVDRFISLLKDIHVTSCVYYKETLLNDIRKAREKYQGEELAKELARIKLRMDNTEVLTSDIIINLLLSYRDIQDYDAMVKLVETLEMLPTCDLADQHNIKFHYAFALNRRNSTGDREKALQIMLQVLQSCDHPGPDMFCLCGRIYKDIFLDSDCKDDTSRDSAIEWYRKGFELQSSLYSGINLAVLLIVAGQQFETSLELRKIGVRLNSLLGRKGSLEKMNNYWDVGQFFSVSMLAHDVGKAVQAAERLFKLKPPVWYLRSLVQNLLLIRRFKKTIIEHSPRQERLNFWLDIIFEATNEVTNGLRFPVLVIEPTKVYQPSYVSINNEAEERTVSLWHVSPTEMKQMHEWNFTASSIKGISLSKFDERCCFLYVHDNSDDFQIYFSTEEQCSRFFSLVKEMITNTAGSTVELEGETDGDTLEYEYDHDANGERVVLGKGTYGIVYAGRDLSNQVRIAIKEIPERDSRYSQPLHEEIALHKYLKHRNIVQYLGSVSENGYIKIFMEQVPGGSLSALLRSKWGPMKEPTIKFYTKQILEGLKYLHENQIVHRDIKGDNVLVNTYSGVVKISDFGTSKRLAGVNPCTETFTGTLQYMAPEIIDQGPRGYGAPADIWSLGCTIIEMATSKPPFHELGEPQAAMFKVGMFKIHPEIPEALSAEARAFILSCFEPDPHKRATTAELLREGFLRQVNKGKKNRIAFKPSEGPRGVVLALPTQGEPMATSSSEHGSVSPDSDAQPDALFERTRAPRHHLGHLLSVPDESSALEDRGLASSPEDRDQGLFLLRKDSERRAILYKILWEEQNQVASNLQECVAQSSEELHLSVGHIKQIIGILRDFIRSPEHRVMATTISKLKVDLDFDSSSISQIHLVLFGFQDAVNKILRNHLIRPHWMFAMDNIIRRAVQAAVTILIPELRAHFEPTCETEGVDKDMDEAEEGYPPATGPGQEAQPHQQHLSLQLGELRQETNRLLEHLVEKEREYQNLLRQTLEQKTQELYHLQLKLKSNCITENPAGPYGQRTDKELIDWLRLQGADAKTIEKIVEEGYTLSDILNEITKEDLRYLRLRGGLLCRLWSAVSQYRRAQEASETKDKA
Sequence of UniProt Q16816 (whole entry, looked up): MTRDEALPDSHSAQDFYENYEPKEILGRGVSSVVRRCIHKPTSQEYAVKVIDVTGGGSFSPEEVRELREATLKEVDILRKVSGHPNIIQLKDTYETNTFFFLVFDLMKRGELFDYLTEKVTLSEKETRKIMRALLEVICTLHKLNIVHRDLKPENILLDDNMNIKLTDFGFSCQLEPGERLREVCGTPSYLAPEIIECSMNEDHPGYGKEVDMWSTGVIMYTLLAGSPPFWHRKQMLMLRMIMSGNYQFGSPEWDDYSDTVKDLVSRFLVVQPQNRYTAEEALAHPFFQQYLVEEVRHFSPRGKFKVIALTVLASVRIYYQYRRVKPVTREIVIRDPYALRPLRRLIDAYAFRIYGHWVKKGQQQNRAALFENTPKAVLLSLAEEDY
Sequence of UniProt Q9UQB9 (whole entry, looked up): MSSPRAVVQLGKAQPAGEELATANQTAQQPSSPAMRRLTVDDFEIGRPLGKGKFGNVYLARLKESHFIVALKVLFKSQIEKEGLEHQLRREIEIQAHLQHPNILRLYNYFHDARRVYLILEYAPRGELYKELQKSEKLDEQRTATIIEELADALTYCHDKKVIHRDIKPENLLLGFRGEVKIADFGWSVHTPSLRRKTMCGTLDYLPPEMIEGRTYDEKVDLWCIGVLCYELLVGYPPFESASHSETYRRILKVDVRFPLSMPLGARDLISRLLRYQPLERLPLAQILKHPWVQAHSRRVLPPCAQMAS

Series 1 — observed: cell-free assay; technique: competition with immobilised ligand; tested at: 1 µM
Structure (SMILES): C[C@H](c1cccc(C#N)c1)n1cc(Cl)cc(C(N)=O)c1=N
target | remaining binding [%]
EPHB2 (Homo sapiens, UniProt P29323) | 66
MAP3K12 (Homo sapiens, UniProt Q12852) | 100
FLT1 (Homo sapiens, UniProt P17948) | 100
FLT3 (Homo sapiens, UniProt P36888, D835V/ITD) | 100
PHKG1 (Homo sapiens, UniProt Q16816) | 100
DSTYK (Homo sapiens, UniProt Q6XUX3) | 83
Tyrosine-protein kinase ABL1, non-phosphorylated (ABL1, Homo sapiens, UniProt P00519, H396P) | 55
RIOK2 (Homo sapiens, UniProt Q9BVS4) | 74
CDK8 (Homo sapiens, UniProt P49336) | 100
EIF2AK1 (Homo sapiens, UniProt Q9BQI3) | 100
Non-receptor tyrosine-protein kinase TYK2, JH2 (TYK2, Homo sapiens, UniProt P29597) | 75
Tyrosine-protein kinase JAK3, JH1 (JAK3, Homo sapiens, UniProt P52333) | 94
MERTK (Homo sapiens, UniProt Q12866) | 96
PIK3CA (Homo sapiens, UniProt P42336, H1047Y) | 95
Aurora kinase C (AURKC, Homo sapiens, UniProt Q9UQB9) | 91
STK38L (Homo sapiens, UniProt Q9Y2H1) | 68
MAP3K15 (Homo sapiens, UniProt Q6ZN16) | 81

Series 2 — observed: enzyme activity; action: inhibitor; tested at: 0.5 µM; relative to: control
Compound: COc1ccc(S(=O)(=O)N(CCO)c2ccccc2CN(C)CC=Cc2ccc(Cl)cc2)cc1
target | remaining activity
BTK (Homo sapiens, UniProt Q06187) | 96.4%
PRKCI (Homo sapiens, UniProt P41743) | 97.5%
PLK2 (Homo sapiens, UniProt Q9NYY3) | 102%
LYN (Homo sapiens, UniProt P07948) | 96.8%
IRAK4 (Homo sapiens, UniProt Q9NWZ3) | 97.2%
PRKG1 (Homo sapiens, UniProt Q13976) | 94.7%
CSNK1A1 (Homo sapiens, UniProt P48729) | 99.3%
AKT3 (Homo sapiens, UniProt Q9Y243) | 105%
CSNK2A1 (Homo sapiens, UniProt P68400) | 99.5%
CHEK1 (Homo sapiens, UniProt O14757) | 93.5%
MAP3K10 (Homo sapiens, UniProt Q02779) | 92.4%
Cyclin-dependent kinase 9, with cyclin T1 (CDK9, Homo sapiens, UniProt P50750) | 103%

Series 3 — observed: acetyl-histone H4 peptide binding; technique: AlphaScreen displacement; tested at: 50 µM
Target: Bromodomain-containing protein 4, BD1 (BRD4, Homo sapiens, UniProt O60885)
Structure (SMILES) | inhibition
N#Cc1c(-c2ccccc2)cc(-c2cc(Br)ccc2O)[nH]c1=O | 54.9%
CN1CCN(Cc2c(-c3ccco3)[nH]c3ncccc23)CC1 | 4.2%
COc1ccc(Nc2ncc(F)c(N3CCOCC3)n2)cc1 | 20.1%
CN(C)CC1CCn2c(c(C3=C(c4cn(C)c5ccccc45)C(=O)NC3=O)c3ccccc32)C1.Cl (stereo not drawn) | 89.7%
CC(Nc1nc(-c2ccc(F)c(Cl)c2)cnc1N)c1ccccc1 (stereo not drawn) | 42.4%
CCCCOC(=O)COC(=O)c1cc(=O)[nH]c2ccccc12 | 2.05%
O=c1cc(N2CCOCC2)oc2c(-c3ccccc3)cccc12 | 17.7%
Nc1nc(Nc2ccc(S(N)(=O)=O)cc2)nn1C(=O)c1c(F)cccc1F | 9.5%
Cc1cc(C=C2C(=O)C=CC2=O)cc(C)c1O | 54.2%
Cl.Cn1cc(C2=C(c3c4n(c5ccccc35)CCC(CN)C4)C(=O)NC2=O)c2ccccc21 (stereo not drawn) | 93.8%
NC1=N/C(=C2/CCNC(=O)c3[nH]c(Br)cc32)C(=O)N1 | 7.5%
O=c1n(Cc2ccccc2)sc(=S)n1Cc1ccccc1 | -16.6%
CC(=O)CCCCn1c(=O)c2c(ncn2C)n(C)c1=O | 2.8%

Series 4 — observed: enzyme activity; tested at: concentration not given; setting: without ssDNA
Target: DNA polymerase theta, helicase domain (POLQ, Homo sapiens, UniProt O75417)
Sequence of UniProt O75417 (whole entry, looked up): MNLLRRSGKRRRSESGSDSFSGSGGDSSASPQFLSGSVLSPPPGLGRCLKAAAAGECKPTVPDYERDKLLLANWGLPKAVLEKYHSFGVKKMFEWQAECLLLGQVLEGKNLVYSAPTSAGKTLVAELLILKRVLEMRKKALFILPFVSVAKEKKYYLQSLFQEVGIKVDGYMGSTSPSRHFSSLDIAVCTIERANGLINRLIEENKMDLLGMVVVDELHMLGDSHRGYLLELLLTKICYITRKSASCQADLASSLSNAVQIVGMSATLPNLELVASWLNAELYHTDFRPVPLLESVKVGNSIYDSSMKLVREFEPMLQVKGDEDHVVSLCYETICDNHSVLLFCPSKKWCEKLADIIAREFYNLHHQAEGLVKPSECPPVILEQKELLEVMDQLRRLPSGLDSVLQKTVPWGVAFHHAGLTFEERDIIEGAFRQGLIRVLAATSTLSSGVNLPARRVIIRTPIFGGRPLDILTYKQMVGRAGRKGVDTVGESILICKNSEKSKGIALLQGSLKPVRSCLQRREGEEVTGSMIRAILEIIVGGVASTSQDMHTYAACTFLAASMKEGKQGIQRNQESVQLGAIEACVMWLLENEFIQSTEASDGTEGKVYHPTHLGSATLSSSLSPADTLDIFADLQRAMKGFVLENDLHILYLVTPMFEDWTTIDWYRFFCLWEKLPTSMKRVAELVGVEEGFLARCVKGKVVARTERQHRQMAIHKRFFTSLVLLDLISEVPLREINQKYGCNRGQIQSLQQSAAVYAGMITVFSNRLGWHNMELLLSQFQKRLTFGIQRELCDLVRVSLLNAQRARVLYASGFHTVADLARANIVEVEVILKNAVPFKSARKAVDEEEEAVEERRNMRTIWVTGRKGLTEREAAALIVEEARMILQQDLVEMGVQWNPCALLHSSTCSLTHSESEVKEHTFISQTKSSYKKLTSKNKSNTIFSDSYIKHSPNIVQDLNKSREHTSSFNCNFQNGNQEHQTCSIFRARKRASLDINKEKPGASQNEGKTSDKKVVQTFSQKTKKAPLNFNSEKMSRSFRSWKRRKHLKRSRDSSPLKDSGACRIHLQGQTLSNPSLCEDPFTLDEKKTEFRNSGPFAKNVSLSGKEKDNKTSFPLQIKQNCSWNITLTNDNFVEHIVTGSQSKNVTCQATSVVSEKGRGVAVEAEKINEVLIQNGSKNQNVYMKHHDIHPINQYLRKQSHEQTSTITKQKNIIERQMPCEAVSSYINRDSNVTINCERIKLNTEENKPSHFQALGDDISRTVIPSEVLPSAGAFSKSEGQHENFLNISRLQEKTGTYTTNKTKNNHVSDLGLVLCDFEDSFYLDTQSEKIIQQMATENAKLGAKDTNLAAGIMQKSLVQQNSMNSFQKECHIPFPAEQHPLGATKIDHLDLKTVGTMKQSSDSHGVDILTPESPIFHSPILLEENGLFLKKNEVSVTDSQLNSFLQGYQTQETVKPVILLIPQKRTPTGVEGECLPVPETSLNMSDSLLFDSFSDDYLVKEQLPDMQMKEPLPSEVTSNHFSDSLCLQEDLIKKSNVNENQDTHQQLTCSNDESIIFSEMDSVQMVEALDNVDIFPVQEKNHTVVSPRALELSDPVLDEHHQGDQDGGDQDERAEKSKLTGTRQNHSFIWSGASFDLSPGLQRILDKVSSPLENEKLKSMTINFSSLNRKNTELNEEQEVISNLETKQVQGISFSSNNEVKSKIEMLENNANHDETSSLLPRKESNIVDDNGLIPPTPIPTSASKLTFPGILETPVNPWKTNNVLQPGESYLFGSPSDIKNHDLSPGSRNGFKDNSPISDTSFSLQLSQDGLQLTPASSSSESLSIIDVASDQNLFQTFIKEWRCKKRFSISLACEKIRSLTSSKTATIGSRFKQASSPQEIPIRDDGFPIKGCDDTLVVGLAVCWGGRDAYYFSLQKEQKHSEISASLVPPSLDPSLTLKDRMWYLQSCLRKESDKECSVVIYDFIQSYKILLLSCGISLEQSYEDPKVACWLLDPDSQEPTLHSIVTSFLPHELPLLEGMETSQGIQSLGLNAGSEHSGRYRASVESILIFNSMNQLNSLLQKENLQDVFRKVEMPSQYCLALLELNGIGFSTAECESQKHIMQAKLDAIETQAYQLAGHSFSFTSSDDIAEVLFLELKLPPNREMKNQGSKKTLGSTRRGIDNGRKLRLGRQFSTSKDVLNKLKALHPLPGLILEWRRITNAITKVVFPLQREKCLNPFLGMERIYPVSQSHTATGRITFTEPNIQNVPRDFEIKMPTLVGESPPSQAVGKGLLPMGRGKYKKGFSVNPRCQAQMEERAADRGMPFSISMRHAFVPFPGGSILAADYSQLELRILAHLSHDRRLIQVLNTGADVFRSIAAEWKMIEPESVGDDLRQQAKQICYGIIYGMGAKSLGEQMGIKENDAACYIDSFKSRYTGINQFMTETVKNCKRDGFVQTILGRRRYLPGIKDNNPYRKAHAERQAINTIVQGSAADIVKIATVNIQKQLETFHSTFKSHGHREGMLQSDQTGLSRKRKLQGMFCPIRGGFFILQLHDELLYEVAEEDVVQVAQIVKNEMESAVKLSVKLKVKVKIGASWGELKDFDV
Compound | remaining activity [%]
O=C(Nc1cc(-c2ccccc2)sc1C(=O)O)c1cccc(F)c1 | 39.8
N#CSc1cc(SC#N)c(N)nc1N | 91.5
O=C(Nc1noc2ccccc12)c1ccc(F)cc1 | 52.8
COc1ccc(C(=O)Nc2noc3ccccc23)cc1 | 63.8
Cc1ccc(C(=O)Nc2ccccc2C(=O)O)cc1S(=O)(=O)N1CCCCCC1 | 64.6
COc1cccc(C2C3=C(NN/C3=C3/C=CC=CC3=O)C(=O)N2CCc2ccc(OC)c(OC)c2)c1 (stereo not drawn) | 73.9
O=C(O)[C@]1(Cc2cccc(Nc3nccs3)n2)CC[C@@H](Oc2cccc(Cl)c2F)CC1 | 51.1
CCOc1ccc2nc3cc(N)ccc3c(N)c2c1 | 99.1
CCOc1cccc2c1N[C@@H](c1ccc(C(=O)O)cc1)[C@H]1CC=C[C@@H]21 | 64.6

Excerpt of the above (series 3):
Structure (SMILES) | inhibition
Cc1cc(C=C2C(=O)C=CC2=O)cc(C)c1O | 54.2%
CN(C)CC1CCn2c(c(C3=C(c4cn(C)c5ccccc45)C(=O)NC3=O)c3ccccc32)C1.Cl (stereo not drawn) | 89.7%
N#Cc1c(-c2ccccc2)cc(-c2cc(Br)ccc2O)[nH]c1=O | 54.9%
CC(Nc1nc(-c2ccc(F)c(Cl)c2)cnc1N)c1ccccc1 (stereo not drawn) | 42.4%
